# Measurements pooled from the literature.
# Each numbered part is a random draw from the data of one study; scales do not carry over between parts.

# Sample 1 — method: RNA Bind-n-Seq; molecule type: RNA; medium: in vitro; concentration: 200 nM; setting: whole 134-nt RNA, ends assumed; together with: 150 mM KCl; baseline: input library; direction: higher = stronger binding
# Target: Fragile X messenger ribonucleoprotein 1, C-terminal low-complexity region (Fmr1, Mus musculus, UniProt P35922)
Oligonucleotide,log2 enrichment
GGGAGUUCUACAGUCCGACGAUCAAGUCCUGUGCUACACAUCGUAUGUACCGAAUCGGGAAAAAGGGUGGGUUUUUGGGAAAGUAUUAUGUUACGCCGUUCGGAUCUGCACUUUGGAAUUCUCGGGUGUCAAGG,0.838
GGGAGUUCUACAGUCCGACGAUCUCAGGAAGUAAAAACAAAUGGAAAUGCUUCGGAUAGUGGCAGGGGUGGGGGUUGCUAAGGAAAGGGUGGGAUGGGAGUGGGUAAAGAGUUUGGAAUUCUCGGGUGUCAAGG,0.224
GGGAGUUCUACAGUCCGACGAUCUGGGAGGUGGAUUUUGUUUAUUUUUUUAGCUCAUUUCCAGGGGUGGGAAUCUUUUUUUAAUAUGUGUCAUGAAUAAAGUUGUUUUUGAAAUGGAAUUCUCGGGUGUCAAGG,0.379
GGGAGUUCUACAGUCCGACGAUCAAGUCCUGUGCUACACAUCGUAUGUACCGAAUCGGGCCCCGGCCCCGGCCCCGGGGAAAGUAUUAUGUUACGCCGUUCGGAUCUGCACUUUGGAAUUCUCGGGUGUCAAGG,-0.586
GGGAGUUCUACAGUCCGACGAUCUCAAGUCCUGUGCUACACAUCGUAUGUACCGAAUCGGGGAGGGGAGGGGAGGGGAAAGUAUUAUGUUACGCCGUUCGGAUCUGCACUUCCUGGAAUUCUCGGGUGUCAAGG,1.18
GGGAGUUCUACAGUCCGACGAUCAGUCCUGUGCUACACAUCGUAUGUACCGAAUCGGGGUUUGGGGUUUGGGGUUUGGGGAAAGUAUUAUGUUACGCCGUUCGGAUCUGCACUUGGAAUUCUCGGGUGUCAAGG,1.56
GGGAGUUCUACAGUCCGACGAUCUGGGAGGUGGAUUUUGUUUAUUUUUUUAGCGCAUUUCCAGGGGUGGGAAUUUUUUUUUAAUAUGUGUCAUGAAUAAAGUUGUUUUUGAAAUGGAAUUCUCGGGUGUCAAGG,0.352
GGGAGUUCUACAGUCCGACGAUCACCAUGCAGGUGGGCAUCUUUGGGAAGUGGGGCAAGGGGGGGAUAGGGAGAGGGGUAACACUUUGGGAACAGGUGGUCCCAGGUCGUUUCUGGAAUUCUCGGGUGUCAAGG,0.641
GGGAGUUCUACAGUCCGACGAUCUGGGAGGUGGAUUUUGUUUAUUUUUUUAGCUCAUCUCCAGGGGUGGGAAUUUUUUUUUAAUAUGUGUCAUGAAUAAAGUUGUUUUUGAAAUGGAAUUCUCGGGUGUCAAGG,0.203
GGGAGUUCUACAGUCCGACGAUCUGGGAGGUGGAUUUUGUUUAUUUUUUUAGCUCAUUUCCAGGGGUGGGAAUUUUUUUUUAAUAUGUGUCAUGAAUAAAGUUGUUUUUCAAAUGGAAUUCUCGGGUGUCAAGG,0.466

# Sample 2 — method: RNA Bind-n-Seq; molecule type: RNA; medium: in vitro; concentration: 365 nM; baseline: no-protein control; direction: higher = stronger binding
# Target: RNA binding protein fox-1 homolog 2, RRM domain, GST-SBP tag (RBFOX2, Homo sapiens, UniProt O43251-10, residues 100-194)
# Setting: natural RNA segment, single round, ends assumed
Oligonucleotide,RBNS enrichment (R)
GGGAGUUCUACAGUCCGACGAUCCUUGUGGCCUUUAGGACAGUGCUUAGCACUGUGCAGCUGGGACUGUCCCUGGCAAGUGCCUGGUAAAGGACACCGAGGCUGCUGAGCUCUUCCAGCAUGGAGGGUACCAUUGGAAUUCUCGGGUGCCAA,8.41
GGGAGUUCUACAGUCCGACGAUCGAAAAGGAUACAAAAUGCAAAAUCCACAAUUUUGAUAACUGAAAAUUGCCAAUUGUUUUGCAGUACUUUAUUAUAUUGGGUGUCUUGUCUUUCUUGGGCUUUUAGUUAGCUGGAAUUCUCGGGUGCCAA,0.42
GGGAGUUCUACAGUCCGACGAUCACAUAUUGAUAGGUAUAACAUAAUUAAGGUUUAAAAAAAAUUAGACAUAGUUAUUCAGAUUUAGGACCAGUAAGGAUAGAACUUUCUCUUAUUUAUGAAAAAAAAUGCUAUGGAAUUCUCGGGUGCCAA,0.975
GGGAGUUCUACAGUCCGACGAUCUCUGACCUCUACACGUAUGCCACGCUUGUACCCACACACGCGCACACACACAGACUUAUAAUGCAAAUGGAUCUCUGAUCAUAAAGGCCAAAAUUGUGUUCUAUCUCUACUGGAAUUCUCGGGUGCCAA,0.531
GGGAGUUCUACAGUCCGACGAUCGUAUAACUUAGGGAGCGAAGAAAAUGUAGGCGCGAAAGUGAAAAGUGAGGCAGCUAGUUCUUCCUAUUCCAUUCUCGACCAACCUGCCCUUUCUUAAUAUGACUAGUGGUUGGAAUUCUCGGGUGCCAA,0.871
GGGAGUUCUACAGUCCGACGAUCUACCUGCCUGGUGAGAACUCCUGCCCCUGCCUACAAAGGGUACACAACCUACCCAUCAUCCCUAGUGUGUCCCGUCUCCUCCUGCCACCUGUCUGUAUUAUUCUGACCCAUGGAAUUCUCGGGUGCCAA,1.06
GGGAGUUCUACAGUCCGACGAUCUAAUGGCACUUUUGUCUUGUAGCUAUUUUGAGAUGUGGUCCAGAGCAUUUCAGCUGGGAGAUCUCCCUCUGGCCACCAGGACUCUGGCUACUGUUAAAAUCCUGAUGUUUUGGAAUUCUCGGGUGCCAA,0.802
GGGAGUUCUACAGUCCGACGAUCAUCUCUAUACAGGCAGUUAUUUUAUUUUUAGACUGUGUUAGAAUGUCUGGACUUAGCUUCAAACUCUAUGGAUUCGGCCUUGGUAGGGAAUUGUACCACCACUUGGUUUGUGGAAUUCUCGGGUGCCAA,0.809
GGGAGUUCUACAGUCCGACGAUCAGACAGUUCAGAUUACCAGGAUAAUCCCAAGCAGUAUCUCCAGUCUCGGCUGGUAGUGGCCCAGAUCUAUGCAGGCCCAUUAGCACACAUUCAAACCUUCCGGGGCUGUGUGGAAUUCUCGGGUGCCAA,0.371

# Sample 3 — method: protein-binding microarray; molecule type: double-stranded DNA, one strand shown; medium: in vitro; concentration: 2540 nM top; setting: 60-bp whole probe; together with: salmon DNA 0.4 mg/ml; baseline: random background probes; direction: higher = stronger binding; constant ends, left off below: GCCTAGCAC … GTCTTGATTCGCTTGACGCTGCTG
# Target: Interferon regulatory factor 3, full length, phosphomimetic (IRF3, Homo sapiens, UniProt Q14653, residues 1-427, S386D/S396D/S398D/S402D/T404D/S405D)
# Construct (chain): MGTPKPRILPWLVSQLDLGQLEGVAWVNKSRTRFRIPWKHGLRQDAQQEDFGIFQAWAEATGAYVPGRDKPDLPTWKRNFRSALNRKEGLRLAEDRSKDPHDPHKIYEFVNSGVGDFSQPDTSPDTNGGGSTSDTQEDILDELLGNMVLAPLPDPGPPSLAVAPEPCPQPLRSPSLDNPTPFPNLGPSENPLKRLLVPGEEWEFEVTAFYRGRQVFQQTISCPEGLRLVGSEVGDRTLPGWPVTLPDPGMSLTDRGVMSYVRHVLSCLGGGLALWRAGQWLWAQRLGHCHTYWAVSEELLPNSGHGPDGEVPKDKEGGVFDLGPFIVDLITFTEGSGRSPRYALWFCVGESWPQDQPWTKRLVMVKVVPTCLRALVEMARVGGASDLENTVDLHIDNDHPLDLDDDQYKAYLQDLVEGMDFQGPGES
Oligonucleotide,fitted relative affinity
GGCTCTCAGTGGGCTGCTGGGTGCTAG,-1.04 z-score
TCAGCTCTGTGCTTTCCTACTGTGCTA,0.545 z-score
GACGATATCGGGTTTCGATACGTGCTA,2.25 z-score
AGTCGTGAGCCGCACAGTGGGTGCTAG,-0.9 z-score
GACGGTTTAGACTTTCGGGACGTGCTA,0.903 z-score
GCAGACTACCTATGAGTATCGTGCTAG,0.133 z-score
GTGAGTCCCACATCTCTGTCCGTGCTA,-0.285 z-score
TCCAGGCTGGTCTCTAACTCAGTGCTA,-0.388 z-score
TTCTCTTTCCTTCTTGATGCGTGCTAG,7.06 z-score
GACGGTTTCGGTTACGGGACGTGCTAG,7.78 z-score
GACGGTCTCGGTTTCGGGTCGTGCTAG,4.33 z-score
GATGGTCTCGGACTGGGGACGTGCTAG,-0.522 z-score
TTAGGTATCGACTAGCGGTTAGTGCTA,0.0217 z-score
GACGGTTTCAGTTTCGGGACGTGCTAG,7.37 z-score
GGAAATTCTCATTTCCAATTGTGCTAG,2.35 z-score
TTAGATATCATTTTCGATTAGTGCTAG,3.25 z-score
TCAACTCTTTATTTAAGACTGTGCTAG,0.53 z-score

# Sample 4 — method: RNA Bind-n-Seq; molecule type: RNA; medium: in vitro; concentration: 100 nM; baseline: input RNA pool; direction: higher = stronger binding
# Target: RING finger protein unkempt homolog, zinc fingers 1-6, SBP tag (UNK, Homo sapiens, UniProt Q9C0B0, residues 30-357)
# Chain of UniProt Q9C0B0 (30-357, looked up): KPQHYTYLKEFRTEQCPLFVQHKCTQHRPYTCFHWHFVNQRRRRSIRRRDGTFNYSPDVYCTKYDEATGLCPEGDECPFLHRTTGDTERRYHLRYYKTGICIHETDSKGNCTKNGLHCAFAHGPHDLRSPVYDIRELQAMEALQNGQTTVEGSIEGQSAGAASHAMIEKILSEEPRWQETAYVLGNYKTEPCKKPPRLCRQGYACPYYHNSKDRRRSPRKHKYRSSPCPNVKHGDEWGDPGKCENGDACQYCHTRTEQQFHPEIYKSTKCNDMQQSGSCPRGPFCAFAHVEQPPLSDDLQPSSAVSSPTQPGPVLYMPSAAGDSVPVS
# Setting: RNA with constant flanks, vertebrate orthologous sites, ends assumed
Oligonucleotide,bound/input enrichment
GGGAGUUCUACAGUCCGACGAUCUUUUUAAAUUUUUUUUUAUUUAAUUUUUUUCCUUUCAGGGGUAAAGUUUGCUUUACCAAAUAGUGAUUGUAACAAAUUGAUCUGUUUUGGAUGUUGCUAUAGUGACAUGCAGUUCUAUAUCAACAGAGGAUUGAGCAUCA,0.609 ratio
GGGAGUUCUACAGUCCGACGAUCCACAUCCGGUGAUAUUUGGCCUGGCCUUUCAGCUUAUGAUAAUAGUCCUAGAUCACCCCAUAGUCCUUCACCUAUUGCUACACCACCUAGUCAGAGUUCAUCUUGCUCUGAUGCUCCCAUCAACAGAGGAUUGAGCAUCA,1.3 ratio
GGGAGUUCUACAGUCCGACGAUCUCCUCAACAUGUUCUAGCUUGUGAUCCUUCCAAGCUGGGUCAUAUUUUAGUGCUAGACAGUAGAAAUUUCACUUCUCUUUCCAUUGAUCAGAAAACCAGACAUUAAAAACAGGACUAUGUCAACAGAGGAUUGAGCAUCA,1.31 ratio
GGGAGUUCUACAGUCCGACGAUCACUAAUUCUAGAGUAGUAUAUGUUUCAUAAAAAGAUGUCUUUAUAAUUGUGUUUGUCAUAUAGUAUUUUGCAAUUUGUACAAUAAGGAUGUUUAGUAGCCAUAUCUUAAUGGCUUUUUUACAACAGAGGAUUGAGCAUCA,0.905 ratio
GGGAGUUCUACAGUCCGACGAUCGAAACUCCCCAUUGUCACUGAGAACCACCAAAUCUGACUUUUACAUUUGGUCUCAGAAUUUAGGUUCCUGCCCUGUUGGUUUUUUUUUUUUUUUUUUAAACAGUUUUCAAAAGUUCUUAACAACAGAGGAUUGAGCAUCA,1.41 ratio
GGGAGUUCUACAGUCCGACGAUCUAUUUUCUUAUUUUAGGUAUCAUUGCCCAAUGCCCAAGAUCUUUUAUGUUCAGCUGACUGUAGGAAACAAUGAAUUUUUUGGGGAAGGAAAGACUCGACAAGCUGCUAGACACAAUGCUGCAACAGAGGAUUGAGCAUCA,1.45 ratio
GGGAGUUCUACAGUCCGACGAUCGCAUGCACAUGCCACUGUCACCGAAAGCGAACCAUCACGUCUCAGAUUUCCGAGCUGUUGUAGUGUUUCCCAGUCCCUACCCUUCCCAUGACUUUGAGAGAUGAACUGUCCUGAGUUGUUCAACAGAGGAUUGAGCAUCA,0.525 ratio
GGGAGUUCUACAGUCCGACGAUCGCAAUGAAAAAGCAGCCCUUCUCCCAGUCCCCUUUUCACUAGGAGAUACAAACAUUACCAUAGAAGAGCAAUUAAAUUCAAUAAAUUUAUCUUUUCAGGAUGAUCCAGACUCCAGUACCACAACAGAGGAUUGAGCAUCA,1.11 ratio
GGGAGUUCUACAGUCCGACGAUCUACUUCUGGUGAUAUUUGGCCUGGCCUUUCAGCUUAUGAUAAUAGUCCAAGGUCACCUCAUAGUCCUUCACCUAUUGCUACACCACCCAGUCAGAGUUCAUCAUGCUCAGAUGCCCCCAUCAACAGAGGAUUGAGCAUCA,0.819 ratio
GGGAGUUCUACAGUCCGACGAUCAUCCCUCAGUGACAGUAUGCCAUCUGUAGCAGAUUCCCACUCUAGUCAUUUUUCUGAAUUUAGUUGUUCUGACCUAGAAAGCAUGAAGACUUCUUGUAGCCAUGGUUCAACUGAUUAUCACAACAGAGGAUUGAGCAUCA,3.23 ratio
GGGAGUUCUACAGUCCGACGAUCAAUAGUUUUAAGCUUGUUUGCACAGUUUUUUUUUCCCACUGGAGAUGGAAUUCAUUGCCUUAGGUCUUUUUAAUAGUGUAUUGUUAUUGUUGGGCUGGCUCUAUGCUUGAAAACCAGUUUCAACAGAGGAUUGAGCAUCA,2.29 ratio
